Assay results from different studies.
Lines come from different studies, so protocols differ.
Cell line: MDA-MB-231

| SMILES | assay | setting | how to read | endpoint | result |
| --- | --- | --- | --- | --- | --- |
| CCCC[C@H](O)C[C@@H](C)C[C@H](NC(=O)[C@@H]1C[C@H](C)CN1C(=O)/C=C/[C@@H](C)CC)C(=O)N[C@H](C(=O)NC(C)(C)C(=O)N[C@@H](CC(C)C)C(=O)N[C@@H](CC(C)C)C(=O)NC(C)(C)C(=O)NC(C)(C)C(=O)NCCC(=O)N[C@@H](C)CN(C)C)[C@H](O)C(C)C | cell growth or viability, SRB | 48 h | – | GI50 | > 100 nM |
| C#CCOCC1=C(C(=O)OCC)C(c2cccc(Cl)c2)N2C(=N1)Sc1ccccc12 (stereo not shown) | MTT | 100 µM, 48 h | – | viability | 48% |
| CCC(=O)C[C@@H](O)C[C@@H](C)C[C@H](NC(=O)[C@@H]1C[C@H](C)CN1C(=O)/C=C/[C@@H](C)CC)C(=O)N[C@H](C(=O)NC(C)(C)C(=O)N[C@@H](CC(C)C)C(=O)N[C@@H](CC(C)C)C(=O)NC(C)(C)C(=O)NC(C)(C)C(=O)NCCC(=O)N[C@@H](C)CN(C)C)[C@H](O)C(C)C | cell growth or viability, SRB | 48 h | – | GI50 | > 100 nM |
| COC(=O)C1CCCN1C(=O)C(Cc1ccccc1)N(C)C(=O)CC(O)C(CC(C)C)NC(=O)C(CC(C)C)N(C)C(=O)C(CC(C)C)NC(=O)C(O)C(C)C (stereo not shown) | RNA-seq, measured: death receptor 3 mRNA | 40 µM, 6 h, added: TRAIL 25 ng/mL | baseline: solvent control | log2 fold change | 2.4 |
| O=C(O)c1ccc([PH]([Au][Cl])(c2ccccc2)c2ccccc2)cc1 | annexin V/PI flow cytometry | IC50, 72 h | – | early apoptotic cells increase | 62% |
| CCC(=O)CCC[C@H](C)C[C@H](NC(=O)[C@@H]1C[C@H](C)CN1C(=O)/C=C/[C@@H](C)CC)C(=O)N[C@H](C(=O)NC(C)(C)C(=O)N[C@@H](CC(C)C)C(=O)N[C@@H](CC(C)C)C(=O)NC(C)(C)C(=O)NC(C)(C)C(=O)NCCC(=O)N[C@@H](C)CN(C)C)[C@H](O)C(C)C | cell growth or viability, SRB | 48 h | – | GI50 | > 100 nM |
| C[C@@H](N)[C@H](O)CCCCCCCC(=O)CCCCCCCCCCCCCC[C@@H](O[C@@H]1O[C@H](CO)[C@H](O)[C@H](O)[C@H]1O)[C@H](N)CO | – | – | baseline: IC50 MCF-12A over IC50 MDA-MB-231 | selectivity ratio | 6.5 |
| N=C(N)NCCC[C@H](NC(=O)[C@H](CCCNC(=N)N)NC(=O)[C@@H]1CCCN1C(=O)[C@H](CCCNC(=N)N)NC(=O)[C@H](CCCNC(=N)N)NC(=O)[C@H](CCCNC(=N)N)NC(=O)[C@H](Cc1c[nH]c2ccccc12)NC(=O)[C@H](CCCNC(=N)N)NC(=O)[C@H](CCCNC(=N)N)NC(=O)[C@H](CCCNC(=N)N)NC(=O)[C@H](CCCNC(=N)N)NC(=O)[C@H](CCCNC(=N)N)NC(=O)[C@H](Cc1c[nH]c2ccccc12)NC(=O)[C@H](CCCNC(=N)N)NC(=O)[C@H](CCCNC(=N)N)NC(=O)[C@H](Cc1ccc(O)cc1)NC(=O)[C@H](CCCNC(=N)N)NC(=O)[C@H](CCCNC(=N)N)NC(=O)[C@H](CCCNC(=N)N)NC(=O)[C@@H](N)Cc1c[nH]c2ccccc12)C(N)=O | – | 1.0, 5.2, 20.0 µM, 30 min, 37 °C, outcome no effect | – | zeta potential change | no effect |
| C#CCOCC1=C(C(=O)OCC)C(c2cccc(Cl)c2)N2C=CSC2=N1 (stereo not shown) | MTT | 100 µM, 48 h | – | viability | 62% |
| CCN(CC)C1=[S+][Au-]2([S]1)[c]1ccccc1-c1cccc[c]12 | ICP-MS | 10 µM, 18 h | – | mitochondrial gold accumulation | 9 nmol/20 million cells |
| O=C1[O][Pt]2([OH])([OH])([NH]C3CCCCC3[NH]2)[O]C1=O (stereo not shown) | annexin V/PI flow cytometry | IC50, 72 h | – | early apoptotic cells increase | 22% |
| CC(=O)NC1C(OC2OC(CC(O)C3OC(n4ccc(=O)[nH]c4=O)C(O)C3O)C(O)C(O)C2NC(=O)COCc2ccc(N3CCC(Oc4ccc(OC(F)(F)F)cc4)CC3)cc2)OC(CO)C(O)C1O (stereo not shown) | Boyden chamber | 0.2 µM | baseline: untreated | migrated cells | < 50% |
| CC(C)c1c(O)c(O)c2c(c1O)C(=O)C(O)=C1C(C)(C)CCCC12C (stereo not shown) | cell growth or viability, SRB | 48 h | – | GI50 | 46900 nM |
| CN[C@@H](C)C(=O)N[C@H]1CN(C(=O)Cc2ccccc2)CC[C@H]2CC[C@@H](C(=O)NCc3ccc(Br)cc3)N2C1=O | TNFα-dependent cell killing, trypan blue | 1 µM, 48 h, added: TNFα-blocking antibody 2 µg/mL | – | cell death | inhibited |
| CC(N)C(O)CCCCCCCCCCCCCCC(=O)CCCCCCCC(O)C(C)N (stereo not shown) | cytotoxicity, resazurin | – | baseline: MCF-12A over MDA-MB-231 | selectivity index | 1 |
| Cc1cccc(O)c1C(=O)OCC1(O)C(Nc2ccc3c(c2)Cc2ccccc2-3)C(N)C(NC(=O)N(C)C)(C(C)O)C1(C)O (stereo not shown) | cell growth or viability | – | – | EC50 | 376 nM |
